Published values from different studies.
Each numbered part is a random draw from the data of one study; scales do not carry over between parts.

Block 1
Target: Centromere-binding protein 1, full length, His-tagged (CBF1, Saccharomyces cerevisiae, UniProt P17106, residues 1-351)
UniProt P17106, sequence (whole entry, looked up): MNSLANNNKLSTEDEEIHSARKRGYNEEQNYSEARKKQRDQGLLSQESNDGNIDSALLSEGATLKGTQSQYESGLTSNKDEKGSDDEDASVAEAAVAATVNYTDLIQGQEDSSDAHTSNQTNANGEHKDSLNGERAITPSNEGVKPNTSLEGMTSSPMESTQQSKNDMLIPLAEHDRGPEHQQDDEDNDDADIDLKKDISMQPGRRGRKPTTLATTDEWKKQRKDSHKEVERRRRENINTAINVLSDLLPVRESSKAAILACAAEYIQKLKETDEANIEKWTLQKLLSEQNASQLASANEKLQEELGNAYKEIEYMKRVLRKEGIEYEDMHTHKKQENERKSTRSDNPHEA
Method: competition protein-binding microarray
Molecule type: double-stranded DNA, one strand shown
Sample: in vitro
Concentration: 2 µM
Setting: whole 60-bp probe, lowest competitor level
Added: Pho4 competitor, 0.05 µM
Direction: higher = stronger binding
With `TACTATAGGGGCCGACACGTTAGGTGATGACGATAAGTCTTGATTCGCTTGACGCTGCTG` the fluorescence intensity was 57.2 a.u.
`TTGACGGAAAAACGCTGTGTGACGGAGACTAGCCTGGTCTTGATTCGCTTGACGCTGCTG` gave a fluorescence intensity of 50.7 a.u.
The fluorescence intensity of `AAAGCGGTAATTTGCGTTGTGGGTGCAGATATCTATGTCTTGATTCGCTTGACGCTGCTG` is reported as 87.1 a.u.
With `AGATCCTCTTGGGATCTTGTGCGACGGGGAGATTGAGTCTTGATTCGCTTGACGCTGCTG` the fluorescence intensity was 53.8 a.u.
`GGCCCGGTGGGTCCACGCGTGTGTTGCGGTTAGAGCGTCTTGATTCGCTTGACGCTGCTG` has a fluorescence intensity of 55.5 a.u.
With `TGCGCAACAACTTGAAGTGTGGGTGTATGTCTAGAAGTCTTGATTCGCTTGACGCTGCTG` the fluorescence intensity was 71.7 a.u.
`CGCATTATGTTAAGCATTGCCATTGCGGTAACTTCAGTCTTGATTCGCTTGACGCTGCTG` has a fluorescence intensity of 68.7 a.u.
With `AAAGCGGTAATTTGCCAGGTGGGTGCAGATATCTATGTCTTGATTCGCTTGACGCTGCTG` the fluorescence intensity was 89.9 a.u.
With `GAAGTCGGTTCATTGCATGTGCTGTTACACTTCTTAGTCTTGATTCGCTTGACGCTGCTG` the fluorescence intensity was 93.3 a.u.
With `AAGCTACATATAAGGAACGTGCTTTTACTCATCCTAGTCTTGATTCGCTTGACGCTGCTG` the fluorescence intensity was 127 a.u.
With `CGTCCTAGCGATTGAGGCGTGGGTGCCATGAGGAAGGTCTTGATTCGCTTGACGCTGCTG` the fluorescence intensity was 66.4 a.u.
With `CGCTTTCCTATTGCGCGCATGACAAGGATGGAAAAAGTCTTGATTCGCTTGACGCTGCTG` the fluorescence intensity was 119 a.u.
The fluorescence intensity of `TGCGCAACAACTTGTAATGTGGGTGTATGTCTAGAAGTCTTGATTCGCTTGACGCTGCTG` is reported as 82.4 a.u.
`TGAAGAGTGTTGTCTCATGTGACAGTGAATGCCATTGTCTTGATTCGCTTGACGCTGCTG` gave a fluorescence intensity of 541 a.u.
With `CATACCCAACCTTGCGGTGTGGGTGAAGATATTTGTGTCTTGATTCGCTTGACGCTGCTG` the fluorescence intensity was 57.5 a.u.
For `AAGCGGCCGTTGGCGGCCGTGGGTAAGTTATGCATGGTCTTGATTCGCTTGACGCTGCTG`, the fluorescence intensity was 52.2 a.u.
`GTCTTGAAGTTGGCGCACATGGAAATCAAATGACCAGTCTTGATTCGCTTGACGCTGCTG` has a fluorescence intensity of 143 a.u.
`AAGTTTGCTGCCCTTCATGTGCTTTTATGTATGCTTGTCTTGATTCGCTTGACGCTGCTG` gave a fluorescence intensity of 74.9 a.u.
`AACCACTCGTCGAGTCACACGGAGAGTTGGCCATGAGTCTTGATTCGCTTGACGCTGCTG` has a fluorescence intensity of 72.4 a.u.

Block 2
Target: Hepatocyte nuclear factor 3-alpha (Foxa1, Mus musculus, UniProt P35582, residues 1-468, full length assumed)
UniProt P35582, sequence (whole entry, looked up): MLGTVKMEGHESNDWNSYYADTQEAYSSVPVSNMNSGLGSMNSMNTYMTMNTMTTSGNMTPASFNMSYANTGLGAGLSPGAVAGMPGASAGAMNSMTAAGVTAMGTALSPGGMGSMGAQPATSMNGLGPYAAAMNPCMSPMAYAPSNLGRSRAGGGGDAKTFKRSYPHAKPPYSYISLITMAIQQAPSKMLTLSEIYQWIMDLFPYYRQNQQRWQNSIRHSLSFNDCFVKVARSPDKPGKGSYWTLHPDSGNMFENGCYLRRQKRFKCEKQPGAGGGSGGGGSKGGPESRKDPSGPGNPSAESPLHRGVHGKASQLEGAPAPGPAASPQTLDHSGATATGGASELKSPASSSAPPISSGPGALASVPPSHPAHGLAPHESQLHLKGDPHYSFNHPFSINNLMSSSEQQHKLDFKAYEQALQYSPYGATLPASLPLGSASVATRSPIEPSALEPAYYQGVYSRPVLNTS
Method: EMSA with sequencing
Molecule type: double-stranded DNA, one strand shown
Sample: in vitro
Concentration: 10 and 20 nM
Setting: whole designed probe, mean of two concentrations, ends assumed
Relative to: negative control set to 0
Direction: higher = stronger binding
Under “normalised bound fraction”, `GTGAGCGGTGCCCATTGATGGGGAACAAATTGAATAACACACGTAATTGTGCCTGACATAGATATATACATTTTATATATTATTCTTTCTATATAATTTACATGTATAGAATAATATATATGTTTACATTGTATATATTTATATTTTATATAATATGTTATAACAAATATTTATATCATATATAATATGTATTTGTATGTATAATTTATATGGAATTTATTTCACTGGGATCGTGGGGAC` is recorded as 0.518 ratio.
`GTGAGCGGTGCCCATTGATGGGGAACATCTTCCCCCTCTTCCTTGCCCCACCAGCTCACCTTCCCGGGTTATTTGCAGATAGGAAAATAAATAAAGCCGGCATTCGTTAACCCTCTTCTGGCGCAAACTGCTGTTAGGGATGCTTTGTCCATGATCCTTTGGCGACGCCAGGCTCCGGGAGAGCAAAGCACCGTGTCAGGGCCATGATCCGGGGTGGCCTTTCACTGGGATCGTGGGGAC` — result for “normalised bound fraction”: 0.346 ratio.
For `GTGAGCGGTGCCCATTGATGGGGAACCTTGGATTCTCTATTCCTGGCCTTTTATAAATTCCTTTGTCCCTGGCTGGGATCCAGCTGGCTTACACAACTGTCAGTGTAATCTCTATCAATATTTACACAAGGGGTCATGCCATCAAAGAAACTAGAGAAATATCAGGATTAGTGCTTTCACTGGATAAAGTTTGAGGATTGAAGAACCTTCTGTTGAGTGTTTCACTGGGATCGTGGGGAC`, “normalised bound fraction” read 0.465 ratio.
`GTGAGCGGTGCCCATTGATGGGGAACAGTGTCTATAATATATTTATATATGTGTATATACCTACACACACACATGTAATTTTAAACAAACAATTTTAAACCAAAGCAGAGAAATTCCCTGTTTACTTTTGTGGTCTTTTGATTGGATTAGGAAATTGCATTTATAAAGGCCCCTTTGACCAGGAATAATTTTGTAATCTGGATGGGAAATTTCTTTCTTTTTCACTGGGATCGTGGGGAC`: “normalised bound fraction” 0.467 ratio.
Under “normalised bound fraction”, `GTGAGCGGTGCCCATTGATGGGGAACGTGGGCAAAAATGCGAGTTCCGTTCATTGCCTATGACTCACATCTAATGTATGTTTAAAAGATGGGTCAGGGAAAATGTCAAGTGCCAAGCTGTGTTTATTTTGCAATAAAATAAAGGGACATAAGTAGGAAATGAATAGAACAACTACACCTAAGAACTCCTCAAATATTTGAAAAACGGCCGCAATCTGTGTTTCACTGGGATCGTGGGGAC` is recorded as 0.294 ratio.

Block 3
Target: Histone acetyltransferase KAT6A, winged helix 1, GST fusion (KAT6A, Homo sapiens, UniProt Q92794, residues 1-85)
Method: protein binding microarray
Molecule type: double-stranded DNA, one strand shown
Sample: in vitro
Concentration: not given
Setting: 8-mer, flanks averaged, mean of 2 arrays, mostly near background
Relative to: not given
Direction: higher = stronger binding
Residues (chain): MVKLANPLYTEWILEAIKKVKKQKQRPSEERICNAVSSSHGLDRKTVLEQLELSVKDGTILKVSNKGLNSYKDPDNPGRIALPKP
With `ACATCTCC` the E-score was -0.0954.
`GAATGTCA` has an E-score of -0.305.
`CGATAACA` has an E-score of -0.00366.
`CCGCGGGA` gave an E-score of 0.445.
With `CACCTGAG` the E-score was -0.192.
`AGCAATAC` gave an E-score of -0.0729.
For `CCACTAGA`, the E-score was -0.194.
For `CTCATCAG`, the E-score was -0.0936.
The E-score of `GGTACGTA` is reported as -0.0388.
`ATCGTCAC` gave an E-score of -0.171.
`CACCTCAA` has an E-score of -0.228.
The E-score of `CTATTCCC` is reported as -0.0115.
`ATCTAGCG` has an E-score of 0.139.
`ACGGGGAA` has an E-score of 0.166.
The E-score of `AAGAATCG` is reported as 0.125.
`ATAGCCGC` gave an E-score of 0.404.
`GACCCCTA` has an E-score of -0.21.
`AAGCCGTA` gave an E-score of 0.368.
The E-score of `CTCAGTTC` is reported as -0.186.
`CAAATATC` gave an E-score of -0.242.
`ACATCCTC` gave an E-score of -0.0858.
The E-score of `CATTGTAA` is reported as -0.0777.
`GACCGGCC` gave an E-score of 0.229.
The E-score of `TTAAGCAA` is reported as -0.0689.
The E-score of `GCAGCGGC` is reported as 0.418.

Block 4
Target: RNA binding protein fox-1 homolog 2, RRM domain, GST-SBP tag (RBFOX2, Homo sapiens, UniProt O43251-10, residues 100-194)
Method: RNA Bind-n-Seq
Molecule type: RNA
Sample: in vitro
Concentration: 365 nM
Setting: natural RNA segment, single round, ends assumed
Relative to: no-protein control
Direction: higher = stronger binding
Construct (chain): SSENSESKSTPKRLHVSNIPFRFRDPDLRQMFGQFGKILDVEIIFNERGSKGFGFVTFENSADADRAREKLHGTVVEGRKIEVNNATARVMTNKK
For `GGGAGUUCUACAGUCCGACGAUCUUUUAAACUACAGAUGGACUUGGUUUGAGGGAGGGGGAAUCACAGAUUUGGUGCUAAGUUAAUUAGAAACUGGCAGCGUUUUACAGUAGUACACCAGCCUGGAUGUUUUUUGGAAUUCUCGGGUGCCAA`, “RBNS enrichment (R)” read 0.73.
`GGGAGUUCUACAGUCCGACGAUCUCGUCAGUGGCCAGCCUCCCCUCAGAGAGUUCCGUUGGUAGAUACGCUGCUCAUGUCCCCUCUCCCUCCAUCUGAGAAGCAGAAGCGGCCAGUGUGCCUCAAGGCCCAGGUGGAAUUCUCGGGUGCCAA` — result for “RBNS enrichment (R)”: 0.183.
`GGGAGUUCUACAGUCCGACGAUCCAGGCUUAGAACUUGCAGAGUGUGUAUUCUUGGAUGGCUGAUGCAUCGACUUGCAUUCCCACUUAACACUUUGAUUAGCAUGAACUUGCCAAUCAAAAAAUGACAAUCAAUGGAAUUCUCGGGUGCCAA` — result for “RBNS enrichment (R)”: 0.79.
For `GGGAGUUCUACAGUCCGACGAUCCCUGGCCUCCCCACCACUGGGUCAUGUCCUCUGCACCCAGGCCCUUCCAGCUGUUCCUGCCCGAGCGGUCCCAGGGUGUGCUGGGAACUGAUUCCCCUCCUUUGACUUCUUGGAAUUCUCGGGUGCCAA`, “RBNS enrichment (R)” read 0.563.
For `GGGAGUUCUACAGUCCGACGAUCCCUGCACUGCAGCCCAGCCCCGGACAGCUCCAGGAUCCGUGCAGUGGCUGCGCCGCCAGGCCCCAACAAUGGGGACCCUGGGGUGGCUCCUGGCCAAGUGUUCUCUGUUUUGGAAUUCUCGGGUGCCAA`, “RBNS enrichment (R)” read 0.225.
For `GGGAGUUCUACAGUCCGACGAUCGUUGGAGGCCUGAGGCCUCUUGGAACUCUUGCUAACCUGUUCAGAGCCAGGAAGGAGACUGCACAGUUUUGAAAGCACAGCCCGUCAGGUCCGGCUCUGCGUCUCCCUCUUGGAAUUCUCGGGUGCCAA`, “RBNS enrichment (R)” read 0.451.
`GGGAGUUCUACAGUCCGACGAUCAAUCAGAAACUCAUUUACAUAAUGUAAAAGUGAAUCUAAAUAAAUCAUGAUUUAAACAGUCUAAAAAUAGAUCCUGUCUCCUUUUUAGUCAAUGAUAAUAACCUAAGGGAUGGAAUUCUCGGGUGCCAA`: “RBNS enrichment (R)” 0.292.
Under “RBNS enrichment (R)”, `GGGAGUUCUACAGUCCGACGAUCUUGUAGGAUCUGCUAGGACCCUGCAGCUGUGCUGCCGCCACCUCUGCUCCAGAGUGUCCCAGCCAACCCUCGGAAGAUGGGAUUGCCAGUCAGCCCUGCCUCACCAUGCCUGGAAUUCUCGGGUGCCAA` is recorded as 0.215.

For quick reference, copied from above (block 1):
`GTCTTGAAGTTGGCGCACATGGAAATCAAATGACCAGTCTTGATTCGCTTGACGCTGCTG` has a fluorescence intensity of 143 a.u.
`AAGTTTGCTGCCCTTCATGTGCTTTTATGTATGCTTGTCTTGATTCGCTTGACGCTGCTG` gave a fluorescence intensity of 74.9 a.u.
`AACCACTCGTCGAGTCACACGGAGAGTTGGCCATGAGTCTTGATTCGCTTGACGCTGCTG` has a fluorescence intensity of 72.4 a.u.
